# Measurements of several laboratories.
# Chains of the proteins cited; added tags and fusions are not shown. Residues count along the entry.
# UniProt P11509, whole entry: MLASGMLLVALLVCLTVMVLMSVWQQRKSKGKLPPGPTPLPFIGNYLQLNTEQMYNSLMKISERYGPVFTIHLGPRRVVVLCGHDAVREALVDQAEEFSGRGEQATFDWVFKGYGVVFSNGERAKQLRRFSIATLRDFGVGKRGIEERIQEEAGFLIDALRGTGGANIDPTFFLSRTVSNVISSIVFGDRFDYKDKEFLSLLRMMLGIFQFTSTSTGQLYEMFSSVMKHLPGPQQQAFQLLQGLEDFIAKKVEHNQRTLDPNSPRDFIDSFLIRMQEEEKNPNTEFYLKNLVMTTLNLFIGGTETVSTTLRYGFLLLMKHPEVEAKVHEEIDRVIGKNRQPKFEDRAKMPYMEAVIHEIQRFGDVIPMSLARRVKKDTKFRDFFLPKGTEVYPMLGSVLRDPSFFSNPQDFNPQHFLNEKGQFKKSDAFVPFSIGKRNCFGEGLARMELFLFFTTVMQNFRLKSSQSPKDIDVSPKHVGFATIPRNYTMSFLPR
# UniProt P55210, whole entry, looked up: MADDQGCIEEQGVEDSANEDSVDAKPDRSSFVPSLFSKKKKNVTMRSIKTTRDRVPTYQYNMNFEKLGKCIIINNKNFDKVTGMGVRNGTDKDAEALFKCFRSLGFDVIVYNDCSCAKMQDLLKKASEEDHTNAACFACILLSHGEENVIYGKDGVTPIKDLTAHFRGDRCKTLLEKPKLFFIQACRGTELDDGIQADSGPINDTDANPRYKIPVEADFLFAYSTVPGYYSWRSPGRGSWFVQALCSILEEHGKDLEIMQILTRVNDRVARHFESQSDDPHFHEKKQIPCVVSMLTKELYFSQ
# UniProt P36544, 23-502 limits assumed: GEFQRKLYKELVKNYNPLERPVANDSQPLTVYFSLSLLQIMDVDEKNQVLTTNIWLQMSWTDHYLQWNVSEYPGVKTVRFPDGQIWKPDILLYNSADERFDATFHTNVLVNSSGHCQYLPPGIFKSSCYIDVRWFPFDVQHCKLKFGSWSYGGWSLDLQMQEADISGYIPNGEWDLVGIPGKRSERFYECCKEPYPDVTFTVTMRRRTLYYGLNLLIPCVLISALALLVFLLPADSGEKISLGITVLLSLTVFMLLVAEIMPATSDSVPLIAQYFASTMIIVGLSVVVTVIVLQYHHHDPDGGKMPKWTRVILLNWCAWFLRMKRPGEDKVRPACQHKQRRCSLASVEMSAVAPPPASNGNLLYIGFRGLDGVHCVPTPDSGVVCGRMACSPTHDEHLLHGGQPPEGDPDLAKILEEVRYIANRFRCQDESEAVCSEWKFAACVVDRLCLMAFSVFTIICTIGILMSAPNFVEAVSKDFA
# UniProt P37136, 32-614 limits assumed: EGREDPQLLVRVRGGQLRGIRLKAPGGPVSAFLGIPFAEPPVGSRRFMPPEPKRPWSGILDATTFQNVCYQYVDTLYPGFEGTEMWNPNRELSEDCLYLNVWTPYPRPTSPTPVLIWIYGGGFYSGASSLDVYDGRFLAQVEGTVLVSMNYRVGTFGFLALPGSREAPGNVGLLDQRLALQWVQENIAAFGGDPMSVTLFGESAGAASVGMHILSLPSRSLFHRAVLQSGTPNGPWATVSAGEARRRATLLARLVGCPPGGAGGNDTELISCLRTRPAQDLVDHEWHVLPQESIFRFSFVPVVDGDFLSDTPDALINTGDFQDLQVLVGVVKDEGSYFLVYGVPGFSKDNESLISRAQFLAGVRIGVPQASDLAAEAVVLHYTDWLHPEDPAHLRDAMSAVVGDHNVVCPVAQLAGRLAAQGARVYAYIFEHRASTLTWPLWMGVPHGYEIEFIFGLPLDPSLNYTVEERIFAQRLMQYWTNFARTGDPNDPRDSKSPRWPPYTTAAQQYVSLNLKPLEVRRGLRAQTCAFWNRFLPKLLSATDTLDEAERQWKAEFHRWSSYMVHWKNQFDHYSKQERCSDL
# UniProt P42574, whole entry, looked up: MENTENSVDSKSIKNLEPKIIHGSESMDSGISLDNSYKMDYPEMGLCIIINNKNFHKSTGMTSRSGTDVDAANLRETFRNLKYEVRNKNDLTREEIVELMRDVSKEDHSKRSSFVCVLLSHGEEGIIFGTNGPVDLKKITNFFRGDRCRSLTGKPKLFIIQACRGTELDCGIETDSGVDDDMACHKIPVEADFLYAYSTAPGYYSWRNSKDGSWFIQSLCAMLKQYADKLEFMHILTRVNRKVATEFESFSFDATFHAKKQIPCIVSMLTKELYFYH
# Lines come from different studies, so protocols differ. Numbers after ± are the reported error.
SMILES,tested on,assay,system,setting,scale,quantity,result
CC(C)CC(NC(=O)C(Cc1ccccc1)NC(=O)c1cnc(C(=O)NC(Cc2ccccc2)C(=O)NC(CC(C)C)B(O)O)cn1)B(O)O (stereo not drawn),proteasome (human),"chymotrypsin-like activity, inhibitor, Proteasome-Glo",MM1.S,24 h,,IC50,0.0029 ± 0.00018 µM
Cc1nn(-c2ccc(Cl)cc2)c2c1C(c1cccc(Cl)c1Cl)C(C#N)=C(N)O2 (stereo not drawn),Vero E6,,,6.3 µM,,viability,66.5%
Cc1ccc2[nH]cc(CNCC3(N4CCCC4)COC3)c2c1,U87,single-dose screen,,"30 µM, 48 h",baseline: DMSO control,viability,92.6%
CC1(C)N=C(N)N=C(N)N1c1cccc(OCCCc2ccccc2)c1,Pseudomonas aeruginosa,broth microdilution,PAO1,without thymidine,,MIC90,> 128 µM
CCCCCCCCC/C=C/C=O,"Cytochrome P450 2A6 (CYP2A6, Homo sapiens, UniProt P11509)",competitive inhibitor,human liver S9,added: coumarin,,Ki,128 ± 35 µM
O=C(Nc1cccc(C2=NCCN2)c1)c1ccc(-c2ccc(C(=O)Nc3cccc(C4=NCCN4)c3)cc2)cc1,HEK-293T,,,,,CC50,> 100 µM
CC(C)[C@H](NC(=O)CNC(=O)[C@H](COP(=O)(O)O)NC(=O)[C@@H](NC(=O)[C@H](CCC(=O)O)NC(=O)[C@H](CC(=O)O)NC(=O)CCNC(=O)Cc1cc(=O)oc2cc(N)ccc12)C(C)C)C(=O)N[C@@H](CCCCNc1ccc([N+](=O)[O-])cc1[N+](=O)[O-])C(=O)N[C@@H](CC(=O)O)C(N)=O,"Caspase-7 (CASP7, Homo sapiens, UniProt P55210)",substrate,,"pH 7.2, 37 °C",,kcat,0.001 s⁻¹
CCOC(=O)c1c(-c2ccc(Cl)cc2Cl)n(-c2nc(-c3ccc(Cl)cc3)c3c(NC(=O)c4ccccc4)nnc-3[nH]2)[nH]c1=O,RPMI-8226,SRB,,,,CC50,> 100 µM
CC(Oc1ccc(Cl)cc1Cl)C(=O)NCc1ccc2[nH]cnc2c1 (stereo not drawn),CHO,LDH release,,without Pseudomonas aeruginosa,,CC50,62 ± 7 µM
Fc1ccc2[nH]cc(CNCC3(N4CCCC4)COC3)c2c1,GBM6,,,"30 µM, 48 h",baseline: DMSO,viability,85.6%
CC[C@H](C)[C@@H]1NC(=O)[C@H](CCC(=O)O)NC(=O)[C@@H]2CCCN2C(=O)[C@H](Cc2c[nH]cn2)NC(=O)[C@H](CCCNC(=N)N)NC(=O)[C@H](C(C)C)NC(=O)[C@H](CC(N)=O)NC(=O)[C@@H]2CSSC[C@H](NC(=O)CN)C(=O)N[C@@H](CSSC[C@@H](C(N)=O)NC1=O)C(=O)N[C@@H](CO)C(=O)N[C@@H](Cc1c[nH]cn1)C(=O)N1CCC[C@H]1C(=O)N[C@@H](C(C)C)C(=O)N2,"CHRNA7 (Homo sapiens, UniProt P36544)","ion current, antagonist, two-electrode voltage clamp",Xenopus oocytes,"human, added: ACh 300 µM",,IC50,> 10 µM
COP(=O)(OC)Oc1ccc([N+](=O)[O-])cc1Cl,"Ache (Rattus norvegicus, UniProt P37136)","enzyme activity, inhibitor","rat, postnatal day 12, rat brain homogenate","15 min, 37 °C",,IC50,0.131 µM
Cc1nn(-c2ccc(Cl)cc2)c2c1C(c1cc(Cl)ccc1Cl)C(C#N)=C(N)O2 (stereo not drawn),Vero E6,,,1.6 µM,,viability,82%
C[C@@H](O)[C@@H]1NC(=O)[C@H]2NC(=O)[C@@H](NC(=O)CN)CSSC[C@H](NC(=O)[C@H](CCCNC(=N)N)NC(=O)[C@@H]3CCCN3C(=O)[C@H](CC(=O)O)NC1=O)C(=O)N[C@@H](CCCNC(=N)N)C(=O)N[C@@H](Cc1ccc(O)c(I)c1)C(=O)N[C@@H](CCC(N)=O)C(=O)N[C@H](C(=O)N[C@H](CC(=O)N[C@@H](CCCNC(=N)N)C(=O)O)Cc1ccc(O)cc1)CSSC2(C)C,,RP-HPLC,25% human serum,"150 µM, 24 h, 37 °C",,remaining globular isomer,94%
COc1cc(C2C(C#N)=C(N)Oc3c2c(C)nn3-c2ccc(Cl)cc2)ccc1O (stereo not drawn),Vero E6,MTT,,100 µM,,viability,43.3%
CC[C@H](C)[C@H](NC(=O)[C@@H](NC(=O)[C@H](CC(=O)O)NC(=O)CNC(=O)[C@@H](NC(=O)[C@H](CC(=O)O)NC(=O)[C@H](CCSC)NC(=O)[C@H](CCC(=O)O)NC(=O)[C@H](CC(=O)O)NC(=O)[C@@H](NC(=O)CCNC(=O)Cc1cc(=O)oc2cc(N)ccc12)C(C)C)[C@@H](C)OP(=O)(O)O)[C@@H](C)O)C(=O)N[C@@H](CCCCNc1ccc([N+](=O)[O-])cc1[N+](=O)[O-])C(N)=O,"Caspase-3 (CASP3, Homo sapiens, UniProt P42574)",substrate,,,baseline: unphosphorylated substrate over phosphorylated,kcat/Km decrease,> 530 fold
N#Cc1c(-c2ccc(Cl)cc2Cl)n(-c2nc(-c3ccc(Cl)cc3)c3c(NC(=O)c4ccccc4)nnc-3[nH]2)[nH]c1=O,Malme-3M,SRB,,,,CC50,> 100 µM
Cc1nn(-c2ccc(Cl)cc2)c2c1C(c1ccc([N+](=O)[O-])cc1)C(C#N)=C(N)O2 (stereo not drawn),Vero E6,,,0.4 µM,,viability,87.3%

# Some of these lines once more:
SMILES,tested on,assay,system,setting,scale,quantity,result
Cc1nn(-c2ccc(Cl)cc2)c2c1C(c1ccc([N+](=O)[O-])cc1)C(C#N)=C(N)O2 (stereo not drawn),Vero E6,,,0.4 µM,,viability,87.3%
CC(C)[C@H](NC(=O)CNC(=O)[C@H](COP(=O)(O)O)NC(=O)[C@@H](NC(=O)[C@H](CCC(=O)O)NC(=O)[C@H](CC(=O)O)NC(=O)CCNC(=O)Cc1cc(=O)oc2cc(N)ccc12)C(C)C)C(=O)N[C@@H](CCCCNc1ccc([N+](=O)[O-])cc1[N+](=O)[O-])C(=O)N[C@@H](CC(=O)O)C(N)=O,"Caspase-7 (CASP7, Homo sapiens, UniProt P55210)",substrate,,"pH 7.2, 37 °C",,kcat,0.001 s⁻¹
